Measured values from different studies.
Each numbered part is a random draw from the data of one study; scales do not carry over between parts.

Series 1
Target: RNA binding protein fox-1 homolog 2, RRM domain, GST-SBP tag (RBFOX2, Homo sapiens, UniProt O43251-10, residues 100-194)
Technique: RNA Bind-n-Seq
Form: RNA
Sample: in vitro
Tested at: 365 nM
Setting: natural RNA segment, single round, ends assumed
Baseline: no-protein control
Direction: higher = stronger binding
Target sequence (chain): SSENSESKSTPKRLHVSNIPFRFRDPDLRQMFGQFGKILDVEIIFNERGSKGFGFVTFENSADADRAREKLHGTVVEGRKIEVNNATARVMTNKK
| Oligonucleotide | RBNS enrichment (R) |
| --- | --- |
| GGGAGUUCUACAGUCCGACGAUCAUUCUAAAUUUACUUUUCCUCUAGACCACACUUAAUGCCUGCCUUGAAGACAUUACAGAAAUGAAGGUGUGUUCAUGGGUCAAUAACAGCAAAGUAAUUAUGGACCAAUAUGGAAUUCUCGGGUGCCAA | 0.648 |
| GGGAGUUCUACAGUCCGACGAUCGUGAGCAGAGCCAGAAGGUAGGUCUGUUCAGAGUCUGUGCCCCUGGACCUGGGGAGUGGAUAUCAGAUGGGAUAUCUCCUUCCAUUCCCCGGUCCAGGGGAGAGUCACUAUGGAAUUCUCGGGUGCCAA | 0.4 |
| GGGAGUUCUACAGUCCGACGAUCUCAAGCACUGACACUCAUUACCGUCUGUGAUUGCCAUUUCUUCCCAAGGCCAGUCUGAACCUGAGGUUGCUUUAUCCUAAAAGUUUUAACCUCAGGUUCCAAAUUCAGUAUGGAAUUCUCGGGUGCCAA | 0.296 |
| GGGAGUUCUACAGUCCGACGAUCAAUAAAUCUGGACAAUGCCGUUAGCGAAGAGCCCUUCCUGGUGAAGGCAAACCCAUGGUCACAGCAGGCCAUUUAGAGACUGAGUGGGCGGGGCACUUACCAUCCCUUCCUGGAAUUCUCGGGUGCCAA | 0.266 |
| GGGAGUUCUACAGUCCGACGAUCUAGACCAUAGCUGCAGGUUAACCAAUUAGUUACUAUCGUAGAGUAAUAUAUAUUCAGAAUAAUAAACUCAAGCUGGAGAAAUGAGUCCUGAUAGACUGAAAAUUGAGCAAUGGAAUUCUCGGGUGCCAA | 0.455 |
| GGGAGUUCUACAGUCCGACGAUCUGGAGCUAUCCCCUCCUCCCUCUUUUCUUUGCUUCCAGGGAUAUCCUUGCCUACCUCUUUCUAUCUCCCAGCAGCCCUCAGGUAGCAGUUGAUUUAUUUUACACCUCUGCUGGAAUUCUCGGGUGCCAA | 0.884 |
| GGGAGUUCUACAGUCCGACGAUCCCUCUGCCUCUAUUUCCCAGGACACCUAGAGGAUUCCCUUCUGAACCACCCCAGUGGGGUCUACCUGGGCCGGGACACACUGUACCCACCAUGUGGGGAGCGGGAGCAGGUGGAAUUCUCGGGUGCCAA | 0.401 |
| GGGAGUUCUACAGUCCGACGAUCCUUCUCUUGUCACACAGUGCCCCUUCCCCACGUGUCCUGUGGCUCCAGCCAUUACAGAGUGAAGGUGCAACCCCAUGUGGGAGCCCCACUAGUGACCACUCCCUGAGAGGUGGAAUUCUCGGGUGCCAA | 0.206 |
| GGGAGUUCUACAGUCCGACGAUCUUGAGCACCGGGCCCUGCUCCUCACCUACACUCCCCUUCAAGGAUGCUAUUUAUAUUUGUAUUUAUUAAUAUUAUUAAUUUAUUGGGGUCGGGCUGGGUGGAUGGAUUGUUGGAAUUCUCGGGUGCCAA | 1.08 |
| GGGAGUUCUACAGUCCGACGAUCGCACCUGGACACUAGAGUGGAUGAAUGUCUGGAGUUCACCUGCAUUUGGACUGUGUGAUUGUGCCUCAGACACUAGACCUCUUCCAGAUGGUUAGGUUGUUCUGUAGACUUGGAAUUCUCGGGUGCCAA | 2.97 |
| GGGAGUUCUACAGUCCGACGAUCCUAUUUACUGUUUACAGCUGGCCAGUGCAGAGCUGCUGCUCUUUUACCUUUUUAGGCCCCUGUAACUUCCCACCUUUAAACUGCCCAGAAGGCAUGCCUCUCCCACAGGAUGGAAUUCUCGGGUGCCAA | 1.05 |
| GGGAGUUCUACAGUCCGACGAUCUUUCUUAGAAUACUUGCAAUUACUAAUGACCCCUUCCCUUUCCCUCCUGCUGCCCUGUCCACCCUCUUUCCCCUUCUAACAUCCUUAGAGGGAUGAAAUCUCAGCAUAUGUGGAAUUCUCGGGUGCCAA | 0.573 |

Series 2
Target: Sal-like protein 4, full length isoform B (SALL4, Homo sapiens, UniProt Q9UJQ4-2, residues 1-616)
Technique: universal PBM
Form: double-stranded DNA, one strand shown
Sample: in vitro
Tested at: not given
Setting: 8-mer, flanks averaged, mean of replicates
Direction: higher = stronger binding
Residues (chain): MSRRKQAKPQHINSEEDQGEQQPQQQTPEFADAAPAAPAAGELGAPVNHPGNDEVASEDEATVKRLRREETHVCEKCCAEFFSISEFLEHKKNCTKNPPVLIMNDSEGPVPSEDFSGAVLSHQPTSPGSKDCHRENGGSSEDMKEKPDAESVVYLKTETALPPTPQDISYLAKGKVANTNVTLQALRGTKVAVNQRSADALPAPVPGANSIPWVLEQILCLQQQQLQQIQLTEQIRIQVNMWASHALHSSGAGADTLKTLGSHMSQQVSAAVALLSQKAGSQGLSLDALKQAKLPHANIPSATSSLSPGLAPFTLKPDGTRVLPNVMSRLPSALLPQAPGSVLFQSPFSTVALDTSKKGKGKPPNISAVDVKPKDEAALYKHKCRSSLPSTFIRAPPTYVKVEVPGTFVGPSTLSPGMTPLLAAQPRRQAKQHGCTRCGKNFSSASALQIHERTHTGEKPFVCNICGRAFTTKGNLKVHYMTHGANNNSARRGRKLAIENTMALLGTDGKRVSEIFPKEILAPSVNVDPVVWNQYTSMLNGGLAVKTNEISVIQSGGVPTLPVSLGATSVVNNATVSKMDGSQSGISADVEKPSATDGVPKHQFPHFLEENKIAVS
| Oligonucleotide | E-score |
| --- | --- |
| ATAGCCGA | 0.0717 |
| GAGGGTAA | -0.0254 |
| ATAGTAGC | 0.105 |
| GCGACACC | -0.274 |
| CACCTAGG | -0.207 |
| AAATTTCG | 0.171 |
| ACACAAAA | 0.232 |
| ATTTAAAG | 0.232 |
| AGAGGCGG | -0.249 |
| GGGGTGCA | -0.349 |
| GGATCCCA | -0.139 |
| GTAATTCA | 0.201 |
| CCCGGTGC | -0.321 |
| CATGTTGG | 0.13 |
| CCGGGTGC | -0.42 |
| ACACAAAT | 0.257 |
| AACTAACG | 0.0542 |
| TAGTACCA | 0.00044 |
| ATAAGGAA | 0.13 |
| CGCCCGCG | -0.37 |
| CCCCGTAC | -0.206 |
| GGGGGATA | 0.0495 |

Series 3
Target: Histone acetyltransferase KAT6A, winged helix 1, GST fusion (KAT6A, Homo sapiens, UniProt Q92794, residues 1-85)
Technique: protein binding microarray
Form: double-stranded DNA, one strand shown
Sample: in vitro
Tested at: not given
Setting: 8-mer, flanks averaged, mean of 2 arrays, mostly near background
Baseline: not given
Direction: higher = stronger binding
Residues (chain): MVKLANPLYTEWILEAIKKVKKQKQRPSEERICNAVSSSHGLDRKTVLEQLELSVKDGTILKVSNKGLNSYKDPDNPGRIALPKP
| Oligonucleotide | E-score |
| --- | --- |
| CGCAATGA | 0.0547 |
| CCGATAAG | 0.0157 |
| CGTCCGCA | 0.226 |
| CAGGTTCA | -0.266 |
| CCACTCTA | -0.164 |
| AGTTGCGA | -0.175 |
| CCGTAGGC | 0.291 |
| CACGCATC | 0.231 |
| ATAATAGA | -0.169 |
| GGAATTCC | -0.0725 |
| AGGATGAT | -0.149 |
| ACACTACT | -0.172 |
| TCGGACGA | 0.0092 |
| ACAGTGAT | -0.207 |
| AGACAGAT | -0.326 |
| CCCAAACA | -0.273 |
| CCCCCTTC | -0.142 |
| GCAATCCC | 0.122 |
| GATGTGGC | -0.0368 |
| ATTCCACA | -0.124 |
| TAGGTTCA | -0.128 |

Series 4
Target: Prothrombin, mature alpha-thrombin (F2, Homo sapiens, UniProt P00734)
Technique: aptamer microarray, sandwich
Form: DNA with 2'F-ANA
Sample: in vitro
Tested at: 200 nM
Setting: whole 15-mer aptamer, many near background
Together with: Cy3 exosite-II aptamer, 400 nM
Direction: higher = stronger binding
Oligonucleotide: GGTTGGTGTGGTTGG
| Modification | mean fluorescence intensity |
| --- | --- |
| 2'F-ANA at 2 5 6 8 10 12 14 15 | 76.9 a.u. |
| 2'F-ANA at 1 2 3 4 6 8 10 12 13 15 | 63.8 a.u. |
| 2'F-ANA at 5 8 10 11 13 15 | 52.4 a.u. |
| 2'F-ANA at 3 4 5 6 7 10 11 15 | 52.8 a.u. |
| 2'F-ANA at 1 3 4 5 7 8 9 10 11 13 15 | 116 a.u. |
| 2'F-ANA at 2 3 5 10 13 14 15 | 89.7 a.u. |
| 2'F-ANA at 4 5 6 10 15 | 58.7 a.u. |
| 2'F-ANA at 2 3 4 5 6 8 9 11 13 14 15 | 47.6 a.u. |
| 2'F-ANA at 1 4 5 9 11 13 15 | 47.9 a.u. |
| 2'F-ANA at 1 3 4 5 6 8 9 11 | 62.6 a.u. |
| 2'F-ANA at 5 6 9 11 12 15 | 110 a.u. |
| 2'F-ANA at 3 4 5 9 12 13 14 | 318 a.u. |
| 2'F-ANA at 10 11 12 13 14 | 122 a.u. |
| 2'F-ANA at 3 7 8 12 13 14 15 | 817 a.u. |
| 2'F-ANA at 4 6 7 11 12 13 14 15 | 87 a.u. |
| 2'F-ANA at 7 8 9 10 11 12 | 229 a.u. |
| 2'F-ANA at 2 3 4 5 9 10 11 13 14 15 | 53.6 a.u. |

Repeated from above (series 3):
| Oligonucleotide | E-score |
| --- | --- |
| CCACTCTA | -0.164 |
| TCGGACGA | 0.0092 |
| CACGCATC | 0.231 |
| AGACAGAT | -0.326 |
| ATAATAGA | -0.169 |
| GATGTGGC | -0.0368 |
| GGAATTCC | -0.0725 |
| AGGATGAT | -0.149 |
| CGTCCGCA | 0.226 |
| CCGTAGGC | 0.291 |
| GCAATCCC | 0.122 |
| CGCAATGA | 0.0547 |
